Values quoted from earlier work, collected from citations in different studies.
Lines come from different studies, so protocols differ. Numbers after ± are the reported error. ≈ marks a conversion by molar mass, not a printed value.
DRD2: D(2) dopamine receptor (DRD2, Homo sapiens, UniProt P14416)
Sequence of UniProt P14416 (whole entry, looked up): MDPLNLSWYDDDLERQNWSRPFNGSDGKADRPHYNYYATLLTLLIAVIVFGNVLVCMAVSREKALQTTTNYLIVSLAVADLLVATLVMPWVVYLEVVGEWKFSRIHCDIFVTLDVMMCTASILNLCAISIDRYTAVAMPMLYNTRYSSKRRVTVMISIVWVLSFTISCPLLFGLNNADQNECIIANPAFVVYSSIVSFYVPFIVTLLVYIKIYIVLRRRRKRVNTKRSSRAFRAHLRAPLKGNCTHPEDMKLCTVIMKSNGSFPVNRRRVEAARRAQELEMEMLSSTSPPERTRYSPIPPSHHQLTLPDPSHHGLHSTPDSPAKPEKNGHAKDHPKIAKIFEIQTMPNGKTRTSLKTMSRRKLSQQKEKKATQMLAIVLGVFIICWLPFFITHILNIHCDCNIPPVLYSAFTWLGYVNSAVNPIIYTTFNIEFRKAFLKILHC
Sequence of UniProt P29466 (whole entry, looked up): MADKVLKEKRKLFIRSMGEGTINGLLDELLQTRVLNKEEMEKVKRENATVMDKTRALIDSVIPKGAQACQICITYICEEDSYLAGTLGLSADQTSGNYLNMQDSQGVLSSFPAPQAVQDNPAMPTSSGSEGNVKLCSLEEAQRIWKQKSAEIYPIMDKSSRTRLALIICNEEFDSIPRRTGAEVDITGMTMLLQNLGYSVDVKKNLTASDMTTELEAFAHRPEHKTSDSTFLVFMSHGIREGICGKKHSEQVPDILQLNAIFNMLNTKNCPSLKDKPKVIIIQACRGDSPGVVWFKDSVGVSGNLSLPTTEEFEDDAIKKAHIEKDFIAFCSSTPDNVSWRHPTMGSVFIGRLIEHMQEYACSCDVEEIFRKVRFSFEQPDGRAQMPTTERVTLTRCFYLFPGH
Sequence of UniProt Q9H2G2 (whole entry, looked up): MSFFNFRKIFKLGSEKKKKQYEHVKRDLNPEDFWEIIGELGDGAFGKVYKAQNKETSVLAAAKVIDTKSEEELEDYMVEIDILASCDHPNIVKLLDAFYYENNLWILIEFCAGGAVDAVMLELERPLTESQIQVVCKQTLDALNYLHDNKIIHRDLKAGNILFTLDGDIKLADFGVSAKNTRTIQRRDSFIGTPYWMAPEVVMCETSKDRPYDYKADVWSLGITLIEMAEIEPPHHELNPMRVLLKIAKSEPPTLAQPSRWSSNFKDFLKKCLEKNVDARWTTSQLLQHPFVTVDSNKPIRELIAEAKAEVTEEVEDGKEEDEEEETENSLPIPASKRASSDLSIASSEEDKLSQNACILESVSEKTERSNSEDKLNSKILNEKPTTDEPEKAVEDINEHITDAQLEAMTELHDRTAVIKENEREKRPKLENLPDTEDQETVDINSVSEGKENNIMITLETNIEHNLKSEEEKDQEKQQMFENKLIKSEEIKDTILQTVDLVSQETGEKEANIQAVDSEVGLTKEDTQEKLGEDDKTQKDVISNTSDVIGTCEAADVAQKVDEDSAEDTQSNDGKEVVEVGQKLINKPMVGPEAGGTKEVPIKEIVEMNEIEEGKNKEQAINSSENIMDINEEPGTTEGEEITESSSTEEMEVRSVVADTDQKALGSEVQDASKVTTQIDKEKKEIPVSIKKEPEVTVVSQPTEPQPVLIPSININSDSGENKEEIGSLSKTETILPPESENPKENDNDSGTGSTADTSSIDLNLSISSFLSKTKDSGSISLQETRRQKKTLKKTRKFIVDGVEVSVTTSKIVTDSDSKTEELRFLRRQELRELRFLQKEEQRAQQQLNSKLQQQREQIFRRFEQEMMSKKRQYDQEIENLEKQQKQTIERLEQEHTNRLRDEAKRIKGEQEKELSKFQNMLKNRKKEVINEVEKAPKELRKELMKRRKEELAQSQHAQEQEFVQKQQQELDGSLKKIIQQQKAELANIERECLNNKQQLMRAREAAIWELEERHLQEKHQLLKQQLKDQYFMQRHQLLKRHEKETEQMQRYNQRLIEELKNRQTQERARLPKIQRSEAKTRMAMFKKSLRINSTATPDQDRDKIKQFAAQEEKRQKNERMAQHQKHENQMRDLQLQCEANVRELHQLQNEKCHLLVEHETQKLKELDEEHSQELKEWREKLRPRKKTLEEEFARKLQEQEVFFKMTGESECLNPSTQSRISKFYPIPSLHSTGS
Sequence of UniProt P09874 (whole entry, looked up): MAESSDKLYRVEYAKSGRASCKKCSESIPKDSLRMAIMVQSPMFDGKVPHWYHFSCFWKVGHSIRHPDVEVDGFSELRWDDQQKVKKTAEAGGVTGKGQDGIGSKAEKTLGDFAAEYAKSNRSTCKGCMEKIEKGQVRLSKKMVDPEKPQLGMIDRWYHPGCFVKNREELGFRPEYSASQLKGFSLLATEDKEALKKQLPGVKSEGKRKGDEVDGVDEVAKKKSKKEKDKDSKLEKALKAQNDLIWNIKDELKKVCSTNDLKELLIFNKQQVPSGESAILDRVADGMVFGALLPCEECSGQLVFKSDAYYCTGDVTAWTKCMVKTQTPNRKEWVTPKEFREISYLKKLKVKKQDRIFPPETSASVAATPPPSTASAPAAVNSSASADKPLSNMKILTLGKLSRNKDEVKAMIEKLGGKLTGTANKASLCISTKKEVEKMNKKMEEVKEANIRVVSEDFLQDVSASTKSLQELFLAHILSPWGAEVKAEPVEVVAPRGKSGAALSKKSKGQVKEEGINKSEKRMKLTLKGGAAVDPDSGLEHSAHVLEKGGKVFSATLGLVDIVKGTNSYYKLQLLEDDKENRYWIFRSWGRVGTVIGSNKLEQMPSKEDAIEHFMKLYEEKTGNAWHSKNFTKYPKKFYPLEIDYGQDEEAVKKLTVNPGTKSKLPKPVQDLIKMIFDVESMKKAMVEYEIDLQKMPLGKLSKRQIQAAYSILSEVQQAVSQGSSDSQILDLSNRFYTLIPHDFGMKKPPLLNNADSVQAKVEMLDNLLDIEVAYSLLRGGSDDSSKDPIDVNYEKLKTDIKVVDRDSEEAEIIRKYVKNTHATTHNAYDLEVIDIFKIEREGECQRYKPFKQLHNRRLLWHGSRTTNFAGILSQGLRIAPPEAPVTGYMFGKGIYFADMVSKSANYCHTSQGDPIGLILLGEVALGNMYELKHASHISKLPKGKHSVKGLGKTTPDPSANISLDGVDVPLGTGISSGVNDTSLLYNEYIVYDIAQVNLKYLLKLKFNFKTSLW
Sequence of UniProt Q9Y6L6 (whole entry, looked up): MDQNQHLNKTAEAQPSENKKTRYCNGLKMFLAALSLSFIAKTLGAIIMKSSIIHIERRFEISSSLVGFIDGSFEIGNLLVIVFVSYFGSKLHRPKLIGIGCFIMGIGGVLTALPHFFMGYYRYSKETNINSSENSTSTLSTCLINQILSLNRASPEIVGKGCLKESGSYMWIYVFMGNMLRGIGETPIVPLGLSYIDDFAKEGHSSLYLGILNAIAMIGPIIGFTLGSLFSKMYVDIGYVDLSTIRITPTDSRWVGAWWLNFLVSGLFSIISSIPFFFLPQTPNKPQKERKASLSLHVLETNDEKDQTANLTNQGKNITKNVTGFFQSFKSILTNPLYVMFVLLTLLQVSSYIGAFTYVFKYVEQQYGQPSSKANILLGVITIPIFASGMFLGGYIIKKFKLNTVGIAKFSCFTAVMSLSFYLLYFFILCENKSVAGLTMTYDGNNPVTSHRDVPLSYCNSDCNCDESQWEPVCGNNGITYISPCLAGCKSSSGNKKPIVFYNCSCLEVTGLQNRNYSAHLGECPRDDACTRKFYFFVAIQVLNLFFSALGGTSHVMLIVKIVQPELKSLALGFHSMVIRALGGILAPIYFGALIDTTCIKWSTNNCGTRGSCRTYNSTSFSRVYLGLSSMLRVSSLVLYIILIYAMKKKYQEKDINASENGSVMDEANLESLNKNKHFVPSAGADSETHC
Sequence of UniProt P18825 (whole entry, looked up): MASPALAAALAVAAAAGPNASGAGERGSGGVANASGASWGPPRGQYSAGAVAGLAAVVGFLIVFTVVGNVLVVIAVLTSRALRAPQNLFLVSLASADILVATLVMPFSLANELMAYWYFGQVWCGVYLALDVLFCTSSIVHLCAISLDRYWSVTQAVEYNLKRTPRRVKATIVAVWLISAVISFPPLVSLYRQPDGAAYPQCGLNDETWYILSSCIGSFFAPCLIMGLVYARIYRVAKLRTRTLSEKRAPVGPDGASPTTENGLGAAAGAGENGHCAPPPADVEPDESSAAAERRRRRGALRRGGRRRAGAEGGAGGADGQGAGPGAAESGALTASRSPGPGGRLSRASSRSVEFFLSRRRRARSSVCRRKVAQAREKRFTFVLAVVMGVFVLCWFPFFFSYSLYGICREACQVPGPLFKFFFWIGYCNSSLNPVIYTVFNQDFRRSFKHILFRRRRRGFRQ

For `Cc1ccc(CSc2ncnc3c2ccn3[C@@H]2O[C@H](CO)[C@@H](O)[C@H]2O)cc1`, the Ki was 19000 ± 3900 nM (adenosine kinase (Toxoplasma gondii); binding).
With `O=c1[nH]c(=O)n([C@@H]2O[C@H](CO)[C@@H](O)[C@H]2O)cc1F` the Ki was 430000 nM (cytidine deaminase (human); competitive inhibitor; concentration not given).
The remaining activity of `Nc1cc(C(F)(F)F)c(-c2nc(N3CCOCC3)nc(N3CCOCC3)n2)cn1` is reported as 96% (STE20-like serine/threonine-protein kinase (SLK, Homo sapiens, UniProt Q9H2G2); enzyme activity; 10 µM; reference: untreated).
The Ki of `CNC(=O)[C@@]12C[C@@H]1[C@@H](n1cnc3c(NCc4cccc(Cl)c4)nc(C#Cc4ccc(F)c(F)c4)nc31)[C@H](O)[C@@H]2O` is reported as 1000 to 10000 nM (Alpha-2C adrenergic receptor (ADRA2C, Homo sapiens, UniProt P18825); radioligand binding (PDSP)).
With `CCc1cc(Cl)c(OC)c(N2CCN(C[C@H](O)CCNC(=O)c3cc4ccccc4[nH]3)CC2)c1` the Ki was 11400 nM (DRD2; binding).
`Cc1cn([C@@H]2O[C@H](CO)[C@@H](O)[C@H]2O)c(=O)[nH]c1=O` has a Ki of 440000 nM (cytidine deaminase (human); competitive inhibitor; concentration not given).
The Ki of `CO[C@H]1/C=C/O[C@@]2(C)Oc3c(C)c(O)c4c(O)c(c(/C=N/N5CCN(C)CC5)c(O)c4c3C2=O)NC(=O)/C(C)=C\C=C\[C@H](C)[C@H](O)[C@@H](C)[C@@H](O)[C@@H](C)[C@H](OC(C)=O)[C@@H]1C` is reported as 300 to 4400 nM (Solute carrier organic anion transporter family member 1B1 (SLCO1B1, Homo sapiens, UniProt Q9Y6L6); inhibitor).
With `Nc1ccc(Br)cc1S(=O)(=O)C[C@H](N)C(=O)O` the Ki was 400 nM (kynureninase (Pseudomonas fluorescens); inhibitor).
The Ki of `CCc1cccc(N2CCN(C[C@H](O)CCNC(=O)c3cc4ccccc4[nH]3)CC2)c1Cl` is reported as 75.8 nM (DRD2; binding).
`CNC(C)C1CCC(N)C(OC2C(N)CC(N)C(OC3OCC(C)(O)C(NC)C3O)C2O)O1` (centres unmarked) has an MIC of 1 µg/mL (≈ 2.09 µM) (Escherichia coli; clinical isolate RKI-No_581/16).
The Ki of `Cc1occc1C(=O)Nc1ccc(C(=O)N2CCC(F)(F)/C(=C\C(=O)N3CCC(N4CCCCC4)CC3)c3ccccc32)cc1` is reported as 0.18 nM (vasopressin V1a receptor; antagonist).
`Nc1ccn([C@@H]2O[C@H](COP(=O)(O)O)[C@@H](O)[C@H]2O)c(=O)n1` has a Ki of 500000 nM (cytidine deaminase (human); competitive inhibitor; concentration not given).
With `OC[C@H]1O[C@@H](n2ccc3c(SCc4ccc(F)cc4F)ncnc32)[C@H](O)[C@@H]1O` the Ki was 16000 ± 3900 nM (adenosine kinase (Toxoplasma gondii); binding).
The Ki of `N=C(NOCC(O)CN1CCCCC1)c1cccnc1` (centres unmarked) is reported as 57000 nM (Poly [ADP-ribose] polymerase 1 (PARP1, Homo sapiens, UniProt P09874); inhibitor).
With `CCC(=O)NCC[C@@H]1CCc2ccc3c(c21)CCO3` the Ki was 0.0231 nM (melatonin receptor; chick forebrain).
The Ki of `CNc1ccc(-c2nc3ccccc3s2)cc1` is reported as 19.5 nM (amyloid-beta aggregates; binding, radioligand binding).
The Ki of `C=CCc1ccc(O)c(OC)c1` is reported as 531 nM (Carbonic anhydrase 2 (CA2, Homo sapiens, UniProt P00918)).
`O=C1c2ccccc2-c2n[nH]c3cccc1c23` gave a Ki of 190 nM (JNK; ATP-competitive inhibitor).
For `Cc1c(C)c2c(c(C)c1O)CC[C@](C)(CN1CCN(c3cc(N4CCCC4)nc(N4CCCC4)n3)CC1)O2`, the Ki was about 50 nM (Caspase-1 (CASP1, Homo sapiens, UniProt P29466); inhibitor).
The Ki of `O=c1oc2c(cc1O)oc(=O)c1cc(O)c(O)c(O)c12` is reported as 5460 nM (L-lactate dehydrogenase A chain (LDHA, Homo sapiens, UniProt P00338); enzyme activity, inhibitor; with: pyruvate competition).
The Ki of `OC[C@H]1O[C@@H](n2ccc3c(SCc4ccc(Cl)c(Cl)c4)ncnc32)[C@H](O)[C@@H]1O` is reported as 28000 ± 11000 nM (adenosine kinase (Toxoplasma gondii); binding).
The Ki of `CNC(=O)[C@@]12C[C@@H]1[C@@H](n1cnc3c(NC)nc(C#Cc4ccc(F)c(F)c4)nc31)[C@H](O)[C@@H]2O` is reported as 1000 to 10000 nM (β3; radioligand binding).
The Ki of `O=C(O)C1=CCCN(CCON=C(c2ccccc2)c2ccccc2)C1` is reported as 200 nM (Sodium- and chloride-dependent GABA transporter 1 (Slc6a1, Rattus norvegicus, UniProt P23978); binding; historical reference data).
`O=C(O)/C(=C/c1c(C(=O)O)[nH]c2cc(Cl)cc(Cl)c12)c1ccccc1` has a Ki of 21 nM (Glutamate receptor ionotropic, NMDA 1 (Grin1, Rattus norvegicus, UniProt P35439); binding).
For `O=c1cnn([C@@H]2O[C@H](CO)[C@@H](O)[C@H]2O)c(=S)[nH]1`, the Ki was 290000 nM (cytidine deaminase (human); competitive inhibitor; concentration not given).
The MIC of `CC1(C)S[C@@H]2[C@H](NC(=O)[C@H](N)c3ccccc3)C(=O)N2[C@H]1C(=O)O` is reported as over 16 µg/mL (Escherichia coli; clinical isolate RKI 6 A-6).

Excerpt of the above:
`CNC(C)C1CCC(N)C(OC2C(N)CC(N)C(OC3OCC(C)(O)C(NC)C3O)C2O)O1` (centres unmarked) has an MIC of 1 µg/mL (≈ 2.09 µM) (Escherichia coli; clinical isolate RKI-No_581/16).
